Experimental data pooled from the literature.
Protocols differ between the studies behind these lines. ± gives the spread as reported.
Method: steady-state kinetics
B1: gdh (Bacillus subtilis, UniProt P12310); chain MYPDLKGKVVAITGAASGLGKAMAIRFGKEQAKVVINYYSNKQDPNEVKEEVIKAGGEAVVVQGDVTKEEDVKNIVQTAIKEFGTLDIMINNAGLENPVPSHEMPLKDWDKVIGTNLTGAFLGSREAIKYFVENDIKGNVINMSSVHEVIPWPLFVHYAASKGGIKLMTETLALEYAPKGIRVNNIGPGAINTPINAEKFADPKQKADVESMIPMGYIGEPEEIAAVAAWLASKEASYVTGITLFADGGMTQYPSFQAGRG
B2: enzyme C93G/Y157F (Mus musculus, UniProt P60334); chain MERTELLKPRTLADLIRILHELFAGDEVNVEEVQAVLEAYESNPAEWALYAKFDQYRYTRNLVDQGNGKFNLMILCWGEGHGSSIHDHTDSHGFLKLLQGNLKETLFDWPDKKSNEMIKKSERTLRENQCAYINDSIGLHRVENVSHTEPAVSLHLFSPPFDTCHAFDQRTGHKNKVTMTFHSKFGIRTPFTTSGSLENN
B3: enzyme S252E/S281E/S285E/S287E (Schizosaccharomyces pombe, UniProt P78804); chain MSTPYEPEFQQAYKEIVGSIESSKLFEVHPELKRVLPIISIPERVLEFRVTWEDDKGNCRVNTGYRVQFNSALGPYKGGLRFHPSVNLSILKFLGFEQIFKNALTGLPMGGGKGGSDFDPKGKSDNEIRRFSQAFMRQLFRYIGPQTDVPAGDIGVTGFVVMHMFGEYKRLRNEYSGVVTGKHMLTGGSNIRPEATGYGVVYYVKHMIEHRTKGAETLKGKRVAISGSGNVAQYAALKCIQEGAIVKSISDEKGVLIAKTAEGLVPEEIHEIMALKEKRAEIADEAELCKKHHYIAGARPWTNVGEIDIALPCATQNEVSGEEAAALIKQGCRYVAEGSNMGSSAEAVEVFEKSRASGEGCWLAPGKAANAGGVAVSGLEMAQNAQFSTWTHAEVDAKLAGIMQNIFEQSTDVASKYCDSGSNNIPSLVDGANIAGFLKVATAMQAVGDWW
B4: enzyme (UniProt I4BTU9); chain MISLDDIRQARERIGSWIHRTPIFSSATFSRMAGNEVYLKAENLQKSGAFKFRGAMNFMLSMSDDERKRGVVTGSSGNHGQALACAAKLLGVKAVVVVPLDASPAKVAAIEGYGAKVERCGHSSTERIAKAMEIAENLGMTFVPPFDHPWIMAGQGTAGLEIAEDMQDVDAVLVPCGGCGLISGVATALKESLKGVKVYGVEPETSNSTYLSFKAGRIVELHDIHTIADGLRTASPGSITFPVVQRYVDDILLVSEEEIRNAMVLLLERAKLLVEPSGAVPAAALLYGKVPLKGKRVVALLSGGNVDLAALCKWIEEVRTGN
B5: aspC A106G/A17N/A218G/A278L/A281T/A8Q/D18E/F210I/F212I/F350Y/G15S/G249S/I187A/I279A/I29V/I33V/I341V/I5L/I68L/I71L/L46M/M321L/M380L/N285S/N30D/N64T/S129T/S135A/S273G/S351L/T100S/V125I/V136I/V375I/Y244C (Escherichia coli, UniProt P00509); chain MFENLTAQPADPILSLNELFRADERPGKVDLGVGVYKDETGKTPVMTSVKKAEQYLLENETTKTYLGLDGLPEFGRCTQELLFGKGSALINDKRARTAQSPGGTGGLRVAADFLAKNTSVKRVWISNPTWPNHKAIFNSAGLEVREYAYYDAENHTLDFDALINSLNEAQAGDVVLFHGCCHNPTGADPTLEQWQTLAQLSVEKGWLPLIDIAYQGFGRGLEEDAEGLRAFAAMHKELIVASSCSKNFSLYNERVGACTLVAADSETVDRAFGQMKALARTNYSSPPAHGASVVATILSNDALRAIWEQELTDMRQRIQRLRQLFVNTLQEKGANRDFSFVIKQNGMFSYLGLTKEQVLRLREEFGVYAVASGRINVAGLTPDNMAPLCEAIVAVL
B6: enzyme (Bordetella petrii, UniProt A9I5G2); chain MQATYDVVIRHAEIVDGTGAARFEGDIGIDGDRISRIGDLSHARGRREIDAVGLVAAPGFIDAHTHDDRVMLSAGDMTPKVSQGVTTVIGGNCGISLAPMPQPAPATITPPLDLLDASGQWYRYARFGDYLDSLRTQPAATNCAMLVGHSTLRVITMSDLGRPANEAEIAAMRGHVAEAMESGAIGVSTGLAYAPAMAASTEEVIEICRPLAHHHGLYCTHMRDEGDDIMESLDETFRIGRELGVPVVISHHKVTGVNNFGRSQETLERIRHAMARQPVCLDCYPYPASSTILTYSHAVGSSRTIVTWSRALPQYAGRDLADIAQEMGCSLEDAVQRLLPAGAIYFRMDDADVERILQFDETMIGSDGLPHDEQPHPRLWGTFPRILGHYCRDLGLFPLEKAIHKMTGLTAERFGLADRGVVREGAYADLAIFDAGTVSDRATFAKPVAPSDGIHTVLVNGEVVWRDGRSAGARPGRVLRRAVPA
B7: enzyme H476A (Methanosarcina mazei, UniProt Q8PVB1); chain MSEQRSVPLREHLLALKPCRHGGLIQETSETYGIPENEILDFSANFNPLGSPFDYPENGLNFEDIIKKSCGKLLEYPDNRYVEFREAAARFVGLGVTPQSIVPGNGSTEIVRLVVESVIEKGDKVLLPWPTFGEYEMQCRITGAEPVCPSQEEVNTLPDEVLEEAKILFICNPNNPTGKLRTREELKVLAERCREHKTLLYVDEAFIELSDPSQSVADLPAENNYVFVMRSLTKDFAIPGIRMGFGIAPPAMADILNTARLSWNLGAIANNTGIALLNIEGGIDSPYLKKAREMILKEGETLKAKIDRIRGFEAGEVNVNFILVDVSKFMLNSSELTARLAARGVLVRDCVSFHGLGKNYIRVAVRTEKENDRLIAAIGDVITEWGREQAKNELQHVIEKASEEGIGGRKTCEYYPCHFEGQNCTFCFCPFYPCENEKTGGKWIQSSRGGRVWSCVDCHLVHKKEIAQKILDCLMAEGDTDELVKVAWKEVMEPIL
B8: PYCR2 R119C (Homo sapiens, UniProt Q96C36); chain MSVGFIGAGQLAYALARGFTAAGILSAHKIIASSPEMNLPTVSALRKMGVNLTRSNKETVKHSDVLFLAVKPHIIPFILDEIGADVQARHIVVSCAAGVTISSVEKKLMAFQPAPKVICCMTNTPVVVQEGATVYATGTHALVEDGQLLEQLMSSVGFCTEVEEDLIDAVTGLSGSGPAYAFMALDALADGGVKMGLPRRLAIQLGAQALLGAAKMLLDSEQHPCQLKDNVCSPGGATIHALHFLESGGFRSLLINAVEASCIRTRELQSMADQEKISPAALKKTLLDRVKLESPTVSTLTPSSPGKLLTRSLALGGKKD
B9: enzyme (Treponema denticola, UniProt Q73LY9); chain QTNGTMPKRKFVIAFHASVNTDKTGKNLIKELPDLQKRGINTLFLEIGYNYQWKSDPKLYNKYVLSETVAREIAAECRRLSIDLIPEINCLGHQSWENETFALLKAYPELDETPGLYPSNKDIYCRSLCSSNEKVYTILFGLIDEITEVFSVKKIHVGLDEVFLIGEDACPLCRGKDKAELFAGAVNRLYDHCVKKRGFTMYMWGDRLIDSEDEDSGYKGEYESSCNGTYPAVDLIPKDIIICDWHYDELERYGSIPYFLNKGFRVLPTSFKGIKAVNALIDYSLLYKDNPAMLGHMYTAWDNFTNKNLSRYKPMVKTIDKLKAGN
B10: enzyme (Pseudomonas poae, UniProt A0A2S9EJ63); chain MSTQHYDYIIVGGGSAGSVLANRLSAQADKRVLLIEAGADTPEHDTPTDILDGLQPWLPRLAGERYFWPGLNILRASEHGDIPREPQLYEQARILGGGSSVNMMVANRGLPRDYDEWARLGADGWDWQGVLPYFRKLERDLDFGHSHPEQHGQDGPIPIARVDSRHWGSFTRASAQALHTQGLNDIVDQNGRFEDGYFAPAVAIEHDQRVSSARAYLNAAVRARPNLSVWADTTVRQLTVKGQRVTGVQAVRDGRTVELAGDEVILAAGALQSPAFLLRAGIGPADQLRDLGIEVIADRPGVGRNLWDHSSIGLSASLHHPQVPSDEPGAAHLLAARVSSGVEPSVPGDLYLGIAPNAALGLASAVLWVNKPSSSGHLRLRSKDPADYPAVEFNLLSDRRDLERLRQGLRLLARVFAHPAVAAFSGPPRLSRFAQASNEGPLLSELLANDAQLERYLRTHVGGVWHASGTCRIGRADDPQAVVDHAGRVHGVQGLRVADASVFPSIPTANTNLPTLMIAEKIAEAILANA

`B1 (gdh)` has a kcat/Km of 6670 ± 333 M⁻¹ s⁻¹ (NC(=O)c1ccc[n+]([C@@H]2O[C@H](COP(=O)(O)OP(=O)(O)OC[C@H]3O[C@@H](n4cnc5c(N)ncnc54)[C@H](O)[C@@H]3O)[C@@H](O)[C@H]2O)c1; pH 8, 50 °C).
The kcat/Km of `enzyme (Lactiplantibacillus plantarum, UniProt Q06115)` is reported as 597000 ± 96700 M⁻¹ s⁻¹ (C[C@H](CCC(=O)NCC(=O)O)[C@H]1CC[C@H]2[C@@H]3[C@H](O)C[C@@H]4C[C@H](O)CC[C@]4(C)[C@H]3C[C@H](O)[C@]12C; pH 6.2, 37 °C).
`B2 (enzyme C93G/Y157F)` has a kcat/Km of 25 M⁻¹ s⁻¹ (N[C@@H](CS)C(=O)O; pH 7.5, 37 °C).
For `acsA L233M (Pseudomonas chlororaphis)`, the kcat/Km was 133 ± 16.7 M⁻¹ s⁻¹ (O=C(O)CCC(F)(F)F; pH 7).
The kcat/Km of `B3 (enzyme S252E/S281E/S285E/S287E)` is reported as 120 ± 10 M⁻¹ s⁻¹ (NC(=O)c1ccc[n+]([C@@H]2O[C@H](COP(=O)(O)OP(=O)(O)OC[C@H]3O[C@@H](n4cnc5c(N)ncnc54)[C@H](O)[C@@H]3O)[C@@H](O)[C@H]2O)c1; pH 7, 30 °C, apparent).
The kcat/Km of `B4 (enzyme)` is reported as 15.6 ± 0.8 M⁻¹ s⁻¹ (N[C@@H](CO)C(=O)O; pH 8, 30 °C).
With `efeB (Bacillus subtilis, UniProt P39597)` the kcat/Km was 8900 M⁻¹ s⁻¹ (CCn1c(=NN=c2sc3cc(S(=O)(=O)O)ccc3n2CC)sc2cc(S(=O)(=O)O)ccc21; pH 6, 25 °C, apparent).
The kcat/Km of `enzyme N248Y/Q325R/R246H/R328K (Arabidopsis thaliana, UniProt O24495)` is reported as 70000 ± 50000 M⁻¹ s⁻¹ (C[C@@H](O)C(=O)SC[C@H](NC(=O)CC[C@H](N)C(=O)O)C(=O)NCC(=O)O; pH 7.2, 25 °C).
The kcat/Km of `bjaI (Bradyrhizobium diazoefficiens, UniProt Q89VI2)` is reported as 21700 ± 5000 M⁻¹ s⁻¹ (CC(C)CC(=O)SCCNC(=O)CCNC(=O)[C@H](O)C(C)(C)COP(=O)(O)OP(=O)(O)OC[C@H]1O[C@@H](n2cnc3c(N)ncnc32)[C@H](O)[C@@H]1OP(=O)(O)O; pH 7.3, with: 30 µM DCPIP, 331 µM SAM).
The kcat/Km of `B5` is reported as 150 M⁻¹ s⁻¹ (N[C@@H](CC(=O)O)C(=O)O; pH 7.5, 25 °C, with: PMP 20 µM).
`acs (Salmonella enterica, UniProt Q8ZKF6)` has a kcat/Km of 12000 M⁻¹ s⁻¹ (CCC(=O)O; pH 7, 30 °C, apparent).
`B6 (enzyme)` has a kcat/Km of 272 ± 3.33 M⁻¹ s⁻¹ (CSCC[C@@H](NC(C)=O)C(=O)O; pH 7, 35 °C).
For `B7 (enzyme H476A)`, the kcat/Km was 76 ± 20 M⁻¹ s⁻¹ (Nc1ncnc2c1ncn2[C@@H]1O[C@H](COP(=O)(O)OP(=O)(O)OP(=O)(O)O)[C@@H](O)[C@H]1O; pH 8.5, 25 °C, apparent, anoxic, with: L-Thr 10 mM).
`B8 (PYCR2 R119C)` gave a kcat/Km of 2800 ± 500 M⁻¹ s⁻¹ (NC(=O)C1=CN([C@@H]2O[C@H](COP(=O)(O)OP(=O)(O)OC[C@H]3O[C@@H](n4cnc5c(N)ncnc54)[C@H](OP(=O)(O)O)[C@@H]3O)[C@@H](O)[C@H]2O)C=CC1; pH 7.5, 37 °C, apparent, cofactor varied, with: DL-P5C 5000 µM).
For `B9 (enzyme)`, the kcat/Km was 1570 M⁻¹ s⁻¹ (CC(=O)N[C@H]1[C@H](Oc2ccc([N+](=O)[O-])cc2)O[C@H](CO)[C@@H](O[C@@H]2O[C@H](CO)[C@H](O)[C@H](O)[C@H]2O)[C@@H]1O; pH 6, 40 °C).
For `B10 (enzyme)`, the kcat/Km was 413 M⁻¹ s⁻¹ (COc1cc(CO)ccc1O; pH 8, 30 °C).

A few entries again:
The kcat/Km of `B4 (enzyme)` is reported as 15.6 ± 0.8 M⁻¹ s⁻¹ (N[C@@H](CO)C(=O)O; pH 8, 30 °C).
With `efeB (Bacillus subtilis, UniProt P39597)` the kcat/Km was 8900 M⁻¹ s⁻¹ (CCn1c(=NN=c2sc3cc(S(=O)(=O)O)ccc3n2CC)sc2cc(S(=O)(=O)O)ccc21; pH 6, 25 °C, apparent).
The kcat/Km of `enzyme N248Y/Q325R/R246H/R328K (Arabidopsis thaliana, UniProt O24495)` is reported as 70000 ± 50000 M⁻¹ s⁻¹ (C[C@@H](O)C(=O)SC[C@H](NC(=O)CC[C@H](N)C(=O)O)C(=O)NCC(=O)O; pH 7.2, 25 °C).
